Published values pooled from the literature.
Numbered parts are unrelated; each lists some results of a single study. Changes are numbered by the printed parent chain.

Study 1
Target: Hepatocyte nuclear factor 3-alpha (Foxa1, Mus musculus, UniProt P35582, residues 1-468, full length assumed)
UniProt P35582, sequence (whole entry, looked up): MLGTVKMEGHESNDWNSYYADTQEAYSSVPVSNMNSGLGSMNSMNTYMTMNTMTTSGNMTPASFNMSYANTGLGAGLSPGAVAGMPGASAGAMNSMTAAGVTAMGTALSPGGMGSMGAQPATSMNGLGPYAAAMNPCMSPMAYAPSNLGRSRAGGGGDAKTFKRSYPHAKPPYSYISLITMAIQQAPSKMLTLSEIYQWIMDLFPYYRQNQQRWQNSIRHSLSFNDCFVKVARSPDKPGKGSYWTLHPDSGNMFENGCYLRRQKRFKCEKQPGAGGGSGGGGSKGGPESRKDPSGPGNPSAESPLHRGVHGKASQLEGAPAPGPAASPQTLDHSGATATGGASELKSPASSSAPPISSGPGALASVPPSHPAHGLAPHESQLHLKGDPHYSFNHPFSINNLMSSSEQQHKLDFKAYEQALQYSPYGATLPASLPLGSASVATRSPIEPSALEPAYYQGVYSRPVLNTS
Technique: EMSA with sequencing
Form: double-stranded DNA, one strand shown
Matrix: in vitro
Concentration: 10 and 20 nM
Setting: whole designed probe, mean of two concentrations, ends assumed
Reference: negative control set to 0
Reading: higher = stronger binding
`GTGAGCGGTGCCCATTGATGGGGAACGGTATAACTAAACAAACAAACAAACAAAAAGATACTAAAGATACCGTCTATAATTGGACCCAGGTCAGTGGTGCCTCCAGGGTCCTGGCCAAAGTCAACACAGGGGGTTTGGAAGCGGAAGATAATATCAACAATGGCTAACACATTCAACGCACAAAACAGAATCCTGTTAGAACAGGTGAGAAGTAGGGCTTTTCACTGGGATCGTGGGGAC` — result for “normalised bound fraction”: 0.552 ratio.
`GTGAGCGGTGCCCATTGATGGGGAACAAGTGAAGATGATAAATATGATGGTTTGGGAATTTTTGCCTGGCTGCCATATGCACGAGGAACTAACCAGAGTCTGAAACAGAGAAACCAATGTAAACAAATAACAGAGTTTTTAATTTATATTGTCAATAAATATTAATCAGATATTTTATCAGTTCCTAAAAATGTTGTTTTAATATTTTTCCTACTTTGGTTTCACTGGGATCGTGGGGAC`: “normalised bound fraction” 0.507 ratio.
For `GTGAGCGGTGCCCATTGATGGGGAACTCCTTTATCCCAACATGTTTATACAGACAAAACCAGGTTAAAATCGACACAAGGTCAACTTGAAATGGGGAAAGAGGAAGGTGACGTCACAAAATAAACATGAAGTCTTGTGTACAAGCATCTGCAGAAGAGTTCAGCCTCACCACTTGGGTAATGCTGTTGGAATGTGGTCTGGGTTCACTGTATTTGAATGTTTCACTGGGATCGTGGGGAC`, “normalised bound fraction” read 0.348 ratio.
Under “normalised bound fraction”, `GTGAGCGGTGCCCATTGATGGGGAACATCTTCCCCCTCTTCCTTGCCCCACCAGCTCACCTACGGGGGTTATTTGCAGATAGGAAAATAAATAAAGCCGGCATTCGTTAACGCAGTTCACGCGCATACTGCTGTTTGCTCTGCATGAATCATGGTCCTTACGCGAGGCGTGGCTCCGGGAGAGCAAAGCACCGTGTCAGGCGCATGATCCGGGCTCGCCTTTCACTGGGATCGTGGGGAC` is recorded as 0.359 ratio.
Under “normalised bound fraction”, `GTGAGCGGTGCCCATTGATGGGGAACTTTGGATGTTGTCAGTGGGCAGAGATCAGGTCATGTAAGATTACACAGATGGAACAAAGGATTTTTACCCCTTCAGCCAGATCTGGGACTCAATGTAATCTGCAAGATAACAACACAGGAAGGGTTGCAAACATTGTGCCTAGCACAGGGATGACAGCAGGGCGAATCCTGTAATGTCAAATGTCAGTCAAATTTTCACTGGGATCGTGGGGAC` is recorded as 0.0153 ratio.
For `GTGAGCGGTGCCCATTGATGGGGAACATATAGAAAGAGAAAAATTTTAGAAGGCTATGCATCAAAATATTGAGATTGGTTTGCTCTAGATTATAGCAGTCTTGCTTATCTTTTTTGCATGTTTACATTTTCAAAATTTTTCGTAATAAAAAATTGTTTCACTTTAAACACAGCTGAAAAGAGAATCTTTTGGCGTAAAGGAGGAGTATTTTAGGGGCTATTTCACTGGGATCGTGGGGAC`, “normalised bound fraction” read 0.258 ratio.
`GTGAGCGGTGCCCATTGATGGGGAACCAGCTGGAATGCCTGGCGGAGGCTCCGGTGTCAAGAGCCTGAGAACCTGAGAACCCACCCGAGGCCCCCGCCAGGCAGCGCCGCCAGCAGATTTATTTACTCTGGGGCCCTATCTCCGCGCCATCGGGCCAGATATTTGCCCTGGCGGGATCCAGGGAAACTGCGGTTTTTGTTATGATAGCTGGGGCAGGGATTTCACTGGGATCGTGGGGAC` — result for “normalised bound fraction”: 0.348 ratio.
Under “normalised bound fraction”, `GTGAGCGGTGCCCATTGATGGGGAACAGTTGCAGTCCAGGAAAAAGAAGGCACAAACACTGCTGATCAAATATTACTAAAGCTTTTATGGACTCTTGAACCTCATTTTCCCTCCCAAAAGTACTCTAGACACACTTCATTCTTACTCTGTTTATGCCTCTCTGTCTAATAGAAACTTCACTTCTGACTCCAGCTTTGTCTAATTATTAACACAGAGAGGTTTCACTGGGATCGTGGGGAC` is recorded as 0.0577 ratio.

Study 2
Target: CCNB2, cyclin fold, Cln2 fusion (human)
Technique: yeast growth competition, sequencing
Matrix: yeast
Setting: weak parent motif
Reference: not given
Reading: higher = stronger binding
Starting sequence: CDKN1B docking peptide (human); PSACRNLFGPVDH; partner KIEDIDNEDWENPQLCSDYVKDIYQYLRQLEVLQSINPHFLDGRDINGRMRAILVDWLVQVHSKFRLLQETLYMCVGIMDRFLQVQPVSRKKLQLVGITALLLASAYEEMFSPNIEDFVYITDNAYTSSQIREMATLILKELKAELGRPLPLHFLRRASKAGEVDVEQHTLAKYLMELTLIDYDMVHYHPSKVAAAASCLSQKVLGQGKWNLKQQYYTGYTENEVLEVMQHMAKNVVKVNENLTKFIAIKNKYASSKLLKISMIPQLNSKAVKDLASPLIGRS
`P10Q` — result for “normalised enrichment score”: 0.207.
`V11M`: “normalised enrichment score” 0.17.
`V11Q` — result for “normalised enrichment score”: -0.0754.
For `D12S`, “normalised enrichment score” read -0.171.
`P1T`: “normalised enrichment score” 0.312.
`D12T` — result for “normalised enrichment score”: 0.0123.
Under “normalised enrichment score”, `A3E` is recorded as 0.113.
`S2L`: “normalised enrichment score” 0.111.
`H13R` — result for “normalised enrichment score”: 0.0628.
`A3L`: “normalised enrichment score” 0.257.
`R5I`: “normalised enrichment score” -0.396.
For `A3V`, “normalised enrichment score” read 0.0184.
`N6F` — result for “normalised enrichment score”: -0.435.
`L7N`: “normalised enrichment score” -0.15.
`A3P` — result for “normalised enrichment score”: -0.485.
For `N6M`, “normalised enrichment score” read 0.282.

Study 3
Target: UBE2E2 UBC core domain (UniProt Q96LR5)
UniProt Q96LR5, sequence (whole entry, looked up): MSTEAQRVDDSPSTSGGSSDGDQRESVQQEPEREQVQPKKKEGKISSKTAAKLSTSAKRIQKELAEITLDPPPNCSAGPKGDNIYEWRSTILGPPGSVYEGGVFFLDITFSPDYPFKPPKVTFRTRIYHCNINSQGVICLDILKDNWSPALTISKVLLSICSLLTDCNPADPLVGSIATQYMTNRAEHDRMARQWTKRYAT
Technique: yeast two-hybrid
Matrix: yeast
Setting: mostly zero background
Reference: not given
Reading: higher = stronger interaction
B1: ZMIZ2 RING domain (UniProt Q8NF64); chain GTIPGTPGPNGEDGVEQTAIKVSLKCPITFRRIQLPARGHDCRHIQCFDLESYLQLNCERGTWRCPVCNKTALLEGLEVDQYMLGILIYIQNSDYEEITIDPTCSWK
B2: MDM4 RING domain (UniProt O15151); chain MEDCQNLLKPCSLCEKRPRDGNIIHGRTGHLVTCFHCARRLKKAGASCPICKKEIQLVIKVF
B3: RNF121 RING domain (UniProt Q9H920); chain MPTKHLSDSVCAVCGQQIFVDVSEEGIIENTYRLSCNHVFHEFCIRGWCIVGKKQTCPYCKEKVDLKRMFS
B4: SYTL4 RING domain (UniProt Q96C24); chain RGSQHYSDRTCARCQESLGRLSPKTNTCRGCNHLVCRDCRIQESNGTWRCKVCAKEIELKKAT
B5: RFWD3 RING domain (UniProt Q6PCD5); chain ASMDEEEGDTCTICLEQWTNAGDHRLSALRCGHLFGYRCISTWLKGQVRKCPQCNKKARHSDIVV
B6: SH3RF1 RING domain (UniProt Q7Z6J0); chain DESALLDLLECPVCLERLDASAKVLPCQHTFCKRCLLGIVGSRNELRCPECRTLVGSGVEEL
B7: RBCK1 RING domain (UniProt Q9BYM8); chain SLVLNTEPAECPVCYSVLAPGEAVVLRECLHTFCRECLQGTIRNSQEAEVSCPFIDNTYSCSGKLLEREIK
`B1 (ZMIZ2 RING domain)` — result for “lacZ reporter activity”: 0.
`AMYLQENGIDCPKCKFSYALARGGCMHFHCTQCRHQFCSGCYNAFYAKNKC (RNF31 RING domain (UniProt Q96EP0))`: “lacZ reporter activity” 0.
`B2 (MDM4 RING domain)`: “lacZ reporter activity” 0.
For `B3 (RNF121 RING domain)`, “lacZ reporter activity” read 0.
For `GSDDEEIPFKCFICRQSFQNPVVTKCRHYFCESCALQHFRTTPRCYVCDQQTNGVFNPA (RNF113A RING domain (UniProt O15541))`, “lacZ reporter activity” read 0.
`B4 (SYTL4 RING domain)`: “lacZ reporter activity” 0.
Under “lacZ reporter activity”, `FDGDVDPDLKCALCHKVLEDPLTTPCGHVFCAGCVLPWVVQEGSCPARCRGRLSAKELN (PDZRN3 RING domain (UniProt Q9UPQ7))` is recorded as 0.
Under “lacZ reporter activity”, `B5 (RFWD3 RING domain)` is recorded as 0.
`AVPSGLEENLCKICMDSPIDCVLLECGHMVTCTKCGKRMNECPICRQYVIRAVHVF (RFFL RING domain (UniProt Q8WZ73))` — result for “lacZ reporter activity”: 0.
`B6 (SH3RF1 RING domain)` — result for “lacZ reporter activity”: 0.
For `YQNEVDDDLVCHICLQPLLQPLDTPCGHTFCYKCLRNFLQEKDFCPLDRKRLHFKLCKK (LNX2 RING domain (UniProt Q8N448))`, “lacZ reporter activity” read 0.
`B7 (RBCK1 RING domain)`: “lacZ reporter activity” 0.

Study 4
Target: Sal-like protein 4, full length isoform A (SALL4, Homo sapiens, UniProt Q9UJQ4, residues 1-1053)
UniProt Q9UJQ4, sequence (whole entry, looked up): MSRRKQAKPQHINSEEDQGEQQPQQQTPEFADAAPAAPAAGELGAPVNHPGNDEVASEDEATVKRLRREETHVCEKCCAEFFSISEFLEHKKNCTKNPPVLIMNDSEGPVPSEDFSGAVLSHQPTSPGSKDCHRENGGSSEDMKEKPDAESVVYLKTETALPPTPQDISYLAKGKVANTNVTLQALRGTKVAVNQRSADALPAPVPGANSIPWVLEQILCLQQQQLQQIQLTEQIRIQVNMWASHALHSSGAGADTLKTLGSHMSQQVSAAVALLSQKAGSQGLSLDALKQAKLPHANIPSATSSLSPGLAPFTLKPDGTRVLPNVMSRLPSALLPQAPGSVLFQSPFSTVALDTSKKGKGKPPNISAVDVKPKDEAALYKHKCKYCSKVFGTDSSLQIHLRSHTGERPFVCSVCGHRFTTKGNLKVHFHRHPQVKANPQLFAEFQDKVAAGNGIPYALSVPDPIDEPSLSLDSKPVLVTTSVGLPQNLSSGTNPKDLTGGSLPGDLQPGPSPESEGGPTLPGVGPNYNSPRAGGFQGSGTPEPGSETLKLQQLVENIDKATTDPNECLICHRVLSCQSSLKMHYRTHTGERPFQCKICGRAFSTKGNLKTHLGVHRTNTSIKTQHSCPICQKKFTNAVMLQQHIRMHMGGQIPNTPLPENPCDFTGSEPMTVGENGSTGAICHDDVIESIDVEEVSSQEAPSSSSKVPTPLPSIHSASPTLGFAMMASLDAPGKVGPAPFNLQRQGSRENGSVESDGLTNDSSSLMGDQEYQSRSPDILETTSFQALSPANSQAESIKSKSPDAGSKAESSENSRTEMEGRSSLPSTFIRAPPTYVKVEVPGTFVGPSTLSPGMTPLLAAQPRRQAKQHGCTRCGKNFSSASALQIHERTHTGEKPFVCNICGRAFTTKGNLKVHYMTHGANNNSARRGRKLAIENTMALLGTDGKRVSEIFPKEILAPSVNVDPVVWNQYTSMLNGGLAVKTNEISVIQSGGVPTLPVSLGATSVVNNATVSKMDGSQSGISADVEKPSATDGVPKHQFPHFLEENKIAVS
Technique: universal PBM
Form: double-stranded DNA, one strand shown
Matrix: in vitro
Concentration: 600 nM
Setting: 8-mer, flanks averaged, mean of replicates
Reading: higher = stronger binding
The E-score of `TCACGGGA` is reported as 0.00294.
With `AGGACTAA` the E-score was 0.0532.
`CCTACGCG` has an E-score of -0.304.
`GGTCAGAC` has an E-score of -0.246.
`CCCAGAAC` gave an E-score of -0.126.
For `AGAGGAAT`, the E-score was 0.0232.
The E-score of `CGGAAAAG` is reported as -0.117.
The E-score of `CAACGCTG` is reported as -0.176.
For `ACCAGTCC`, the E-score was -0.379.
For `AGAATCAG`, the E-score was -0.0571.
The E-score of `GCCATGGA` is reported as -0.246.
For `CGGCTGTA`, the E-score was -0.225.
The E-score of `AAGGTATG` is reported as 0.104.
`AGTGGCGG` gave an E-score of -0.222.
The E-score of `AACACGTC` is reported as -0.0694.
`AGGGAATC` has an E-score of -0.223.
`AATGTAAC` has an E-score of 0.223.
For `GTGTGCCA`, the E-score was -0.157.
`CCAGCGCC` has an E-score of -0.291.
`CCGCTGTC` has an E-score of -0.279.
`ATGTACTA` gave an E-score of 0.116.

Study 5
Target: NFIL3, bZIP domain (human)
Technique: DHFR protein complementation
Matrix: yeast
Setting: single substitutions, most at no-binding floor
Reference: wild-type JUN-FOS pair
Reading: higher = stronger binding
Starting sequence: JUN, bZIP domain (human); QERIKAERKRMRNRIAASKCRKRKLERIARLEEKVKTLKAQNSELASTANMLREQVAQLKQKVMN; partner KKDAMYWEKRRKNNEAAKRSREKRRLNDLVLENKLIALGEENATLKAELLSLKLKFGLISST
With `N42L` the binding fitness was -1.45 natural log.
`S47G` gave a binding fitness of -1.42 natural log.
`A40L` has a binding fitness of -1.33 natural log.
With `T48V` the binding fitness was -1.51 natural log.
`R30G` has a binding fitness of -1.33 natural log.
For `L38E`, the binding fitness was -1.43 natural log.
For `Q41I`, the binding fitness was -1.27 natural log.
With `R53W` the binding fitness was -1.57 natural log.
`T37Y` has a binding fitness of -1.3 natural log.
For `Q41L`, the binding fitness was -1.45 natural log.
With `T37S` the binding fitness was -1.39 natural log.
`E32A` gave a binding fitness of -1.34 natural log.
For `L38Q`, the binding fitness was -1.55 natural log.
With `A29W` the binding fitness was -1.36 natural log.
With `S47C` the binding fitness was -1.54 natural log.
For `N42Q`, the binding fitness was -1.47 natural log.
`N42A` has a binding fitness of -1.54 natural log.

A few entries again (study 2):
`N6F` — result for “normalised enrichment score”: -0.435.
`V11M`: “normalised enrichment score” 0.17.
`H13R` — result for “normalised enrichment score”: 0.0628.
`P1T`: “normalised enrichment score” 0.312.
`A3P` — result for “normalised enrichment score”: -0.485.
`R5I`: “normalised enrichment score” -0.396.
